# Earlier results that unrelated publications cite.
# Lines come from different studies, so protocols differ. Numbers after ± are the reported error.
SMILES,tested on,test,system,setting,endpoint,value
COc1ccccc1Oc1cccc(CN2CCC(NC(=O)C3CC(=O)Nc4ccccc43)CC2)c1 (stereo not shown),human CCR8,"IP accumulation, agonist",,,EC50,> 10 µM
O=C(Nc1cccc2cnccc12)NC1CCc2cc(F)ccc2C1Cc1ccccc1 (stereo not shown),TRPV1,"calcium flux, antagonist",HEK293,together with: capsaicin,IC50,0.012 µM
CCNS(=O)(=O)c1ccc(OC)cc1C1(O)CCN(Cc2cccc(Oc3ccccc3OC)c2)CC1,human CCR8 F84A mutant (TM2),"IP accumulation, agonist",,,EC50,0.012 µM
Nc1cc(C(F)(F)F)c(-c2nc(N3CCOCC3)nc(N3CCOCC3)n2)cn1,SW-620,,,,GI50,1.77 µM
COc1ccccc1Oc1cccc(CN2CCC3(CC2)C(=O)NCN3CCc2ccccc2)c1,human CCR8 F290A mutant (TM7),"IP accumulation, agonist",,,EC50,0.02 µM
Cc1c(C#N)cccc1[C@@H](C)Nc1nnc(C)c2cnc(N3CCOCC3)cc12,PC-9,"ERK phosphorylation, In-Cell Western, measured: phospho-ERK",,,IC50,0.218 ± 0.0224 µM
C[C@H]1COCCN1c1nc(-c2cnc(N)cc2C(F)F)nc(N2CCOCC2)n1,DU-145,,,,GI50,0.237 µM
CC(C)(C)COc1nc(C(F)(F)F)ccc1CNC(=O)Nc1cccc2[nH]ncc12,TRPV1,"calcium flux, antagonist",HEK293,together with: capsaicin,IC50,0.006 µM
CNC(C)C1CCC(N)C(OC2C(N)CC(N)C(OC3OCC(C)(O)C(NC)C3O)C2O)O1 (stereo not shown),Klebsiella pneumoniae,,clinical isolate RKI-No_544/13,,MIC,4 µg/mL
FC(F)(F)c1ccc(Nc2nc(N3CCCC3)nc3sc(Nc4c(Cl)cccc4Cl)nc23)cc1,TRPV1,"calcium flux, antagonist",HEK293,together with: capsaicin,IC50,0.012 µM
CC1(C)S[C@@H]2[C@H](NC(=O)[C@H](N)c3ccccc3)C(=O)N2[C@H]1C(=O)O,Acinetobacter baumannii,,clinical isolate RKI-No_584/16,,MIC,> 16 µg/mL
COc1ccccc1Oc1cccc(CN2CCC(NC(=O)C(CCN3CCCC3)c3ccccc3)CC2)c1 (stereo not shown),CCR8 human G206A,"inositol phosphate accumulation, agonist",,,EC50,no effect
O=C(NCc1ccc(Cl)c(Cl)c1)Nc1cccc2cnccc12,TRPV1,"calcium flux, antagonist",HEK293,together with: capsaicin,IC50,0.004 µM
